Measured values pooled from the literature.
Lines come from different studies, so protocols differ. ± marks the error that the study gave.
UniProt Q9KVG7, sequence (whole entry, looked up): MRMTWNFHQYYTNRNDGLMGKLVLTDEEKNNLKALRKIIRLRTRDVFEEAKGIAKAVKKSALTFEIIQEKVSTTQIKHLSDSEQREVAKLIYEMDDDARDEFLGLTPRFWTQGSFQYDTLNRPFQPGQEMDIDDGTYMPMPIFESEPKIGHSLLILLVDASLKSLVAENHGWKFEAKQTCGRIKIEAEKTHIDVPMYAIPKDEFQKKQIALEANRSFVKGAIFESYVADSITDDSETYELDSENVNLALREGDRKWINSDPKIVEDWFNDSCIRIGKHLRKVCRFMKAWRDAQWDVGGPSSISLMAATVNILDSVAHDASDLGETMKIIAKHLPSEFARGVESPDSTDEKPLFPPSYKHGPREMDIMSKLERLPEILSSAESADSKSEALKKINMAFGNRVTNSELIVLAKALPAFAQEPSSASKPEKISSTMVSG
UniProt P13569, sequence (whole entry, looked up): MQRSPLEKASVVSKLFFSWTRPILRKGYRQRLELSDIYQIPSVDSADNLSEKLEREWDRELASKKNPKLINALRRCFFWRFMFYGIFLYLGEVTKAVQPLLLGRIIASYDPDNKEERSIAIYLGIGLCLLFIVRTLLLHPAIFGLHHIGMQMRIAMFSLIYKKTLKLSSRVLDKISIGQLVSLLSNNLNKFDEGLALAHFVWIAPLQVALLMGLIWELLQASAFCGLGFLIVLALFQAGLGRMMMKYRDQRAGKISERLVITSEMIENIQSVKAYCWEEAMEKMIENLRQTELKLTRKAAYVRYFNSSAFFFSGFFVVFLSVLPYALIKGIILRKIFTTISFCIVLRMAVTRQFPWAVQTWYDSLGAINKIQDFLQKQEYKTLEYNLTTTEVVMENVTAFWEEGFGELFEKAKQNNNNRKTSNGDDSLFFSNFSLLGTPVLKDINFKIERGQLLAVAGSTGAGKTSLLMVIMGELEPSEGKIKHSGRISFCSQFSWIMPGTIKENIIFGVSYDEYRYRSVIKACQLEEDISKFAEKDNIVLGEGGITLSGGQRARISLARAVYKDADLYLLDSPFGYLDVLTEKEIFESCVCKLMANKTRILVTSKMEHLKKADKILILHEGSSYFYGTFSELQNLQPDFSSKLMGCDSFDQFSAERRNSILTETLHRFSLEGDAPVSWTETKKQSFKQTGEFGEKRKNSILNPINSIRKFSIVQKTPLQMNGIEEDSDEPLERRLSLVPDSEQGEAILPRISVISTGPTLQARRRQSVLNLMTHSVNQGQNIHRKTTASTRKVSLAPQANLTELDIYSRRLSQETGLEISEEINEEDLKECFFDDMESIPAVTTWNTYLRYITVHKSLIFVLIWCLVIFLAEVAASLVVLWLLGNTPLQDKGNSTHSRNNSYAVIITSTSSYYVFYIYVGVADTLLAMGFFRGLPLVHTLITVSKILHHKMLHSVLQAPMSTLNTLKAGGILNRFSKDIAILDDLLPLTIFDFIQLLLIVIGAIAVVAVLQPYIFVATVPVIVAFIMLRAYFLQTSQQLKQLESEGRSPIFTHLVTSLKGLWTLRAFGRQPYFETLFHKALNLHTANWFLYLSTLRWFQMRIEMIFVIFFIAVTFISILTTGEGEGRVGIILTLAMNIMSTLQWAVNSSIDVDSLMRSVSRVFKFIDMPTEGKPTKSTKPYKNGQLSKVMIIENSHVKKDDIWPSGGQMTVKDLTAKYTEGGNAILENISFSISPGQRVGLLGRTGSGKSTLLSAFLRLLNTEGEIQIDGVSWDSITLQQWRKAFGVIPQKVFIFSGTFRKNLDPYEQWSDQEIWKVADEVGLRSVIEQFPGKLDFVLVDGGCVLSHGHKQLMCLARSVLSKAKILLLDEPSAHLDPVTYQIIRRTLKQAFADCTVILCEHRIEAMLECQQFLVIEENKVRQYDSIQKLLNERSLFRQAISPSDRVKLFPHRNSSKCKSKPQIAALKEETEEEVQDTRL

C=CCn1cnc2c(NCc3ccc(C)s3)nc(N[C@H](CC)CO)nc21  tail current integral (Cav2.1 calcium channel; perforated patch clamp; HEK293 transfected; 50 µM, 100 ms before depolarisation, holding -100 mV; baseline: maximum): > 70%
Nc1ccc(/C=C/C(=O)N2CCc3c(oc4c(-c5ccc(F)cc5)cc(-c5ccc(C(=O)N6CCC(F)(F)CC6)cn5)cc34)C2)cn1  dendritic cells and macrophages (mice, Pan02 allograft, tumour; 100 mg/kg): increased
N=C(N)NCCC[C@@H]1NC(=O)[C@H](CCCCNC(=O)CCOCCOCCOCCOCCNC(=O)CN2CCN(CC(=O)O)CCN(CC(=O)O)CCN(CC(=O)O)CC2)NC(=O)[C@@H](Cc2ccccc2)NC(=O)[C@H](CC(=O)O)NC(=O)CNC1=O [indium-111 labelled]  tissue uptake (female athymic nude mice, lungs; intravenous, 3 µCi, 4 h, U-87 MG glioma xenograft): 0.59 ± 0.01 %ID/g
CCN(CC)CCOC1CCC2(C)C(=CCC3C4CCC(=O)C4(C)CCC32)C1 (centres unmarked)  IC50 (Human coronavirus 229E; viral replication, imaging; MRC5; 24 h): 2.6 µM
COc1ccc(-n2cc(C(=O)N3C[C@]4(OC(=O)c5ccccc5NC(C)=O)CC[C@H](OC)[C@@]56[C@@H]4C[C@@H]([C@@H]35)[C@@]3(O)C[C@H](OC)[C@H]4C[C@@H]6[C@]3(O)[C@H]4OC)nn2)cc1  nitric oxide level (Griess; ICR mouse, LPS-induced lung injury, BALF; oral, 5, 10, 15 mg/kg): decreased
O=C1CC(=O)N(c2ccccc2)c2cc(Cl)ccc2N1  heat hyperalgesia (Hargreaves test; wild-type mouse, CCI neuropathy; oral, 3, 10 or 30 mg/kg, 7 to 14 days after CCI): decreased
CCN(Cc1ccccc1)C(=O)CCc1nc(CN2CCN(C(=O)Cc3ccc(OC)c(OC)c3)CC2)no1  onset day (thermal withdrawal threshold, Hargreaves test; mouse CCI model; 1 mg/kg, dosing from day 11): 13 days
CC(C)(C)c1cc(C(C)(C)C)c(-n2cc(-c3cnc4ccccc4c3O)nn2)cc1O  EC50 (CFTR (Homo sapiens, UniProt P13569); short-circuit current, potentiator; CFBE41o- wild type; added: forskolin 100 nM): inactive
CCCCCCCCC(=O)NCc1ccc(O)c(OC)c1  IC50 (mAb 5-3H1; antibody binding, indirect competitive ELISA; added: coating antigen 4-OVA): 4.04 ng/mL
C[C@H](NC(=O)[C@@H]1CCCN1C(=O)[C@H](Cc1ccc(O)cc1)NC(=O)CNC(=O)[C@H](CO)NC(=O)[C@H](Cc1ccccc1)NC(=O)[C@@H](N)[C@@H](C)O)C(=O)N[C@@H](Cc1ccccc1)C(=O)O  reversal potential (mu opioid receptor, rat; ion current, agonist, whole-cell patch clamp; Sprague Dawley rat, supraoptic nucleus neurons, brain slice; dose not given): -105 mV
N=C(N)NCCC[C@@H]1NC(=O)[C@H](CCCCNC(=O)CCOCCOCCOCCOCCNC(=O)CC[C@H](NC(=O)CCOCCOCCOCCOCCNC(=O)CC[C@H](NC(=O)CN2CCN(CC(=O)O)CCN(CC(=O)O)CCN(CC(=O)O)CC2)C(=O)NCCOCCOCCOCCOCCC(=O)N[C@@H](CCC(=O)NCCOCCOCCOCCOCCC(=O)NCCCC[C@@H]2NC(=O)[C@@H](Cc3ccccc3)NC(=O)[C@H](CC(=O)O)NC(=O)CNC(=O)[C@H](CCCNC(=N)N)NC2=O)C(=O)NCCOCCOCCOCCOCCC(=O)NCCCC[C@@H]2NC(=O)[C@@H](Cc3ccccc3)NC(=O)[C@H](CC(=O)O)NC(=O)CNC(=O)[C@H](CCCNC(=N)N)NC2=O)C(=O)NCCOCCOCCOCCOCCC(=O)NCCCC[C@@H]2NC(=O)[C@@H](Cc3ccccc3)NC(=O)[C@H](CC(=O)O)NC(=O)CNC(=O)[C@H](CCCNC(=N)N)NC2=O)NC(=O)[C@@H](Cc2ccccc2)NC(=O)[C@H](CC(=O)O)NC(=O)CNC1=O [indium-111 labelled]  tissue uptake (female athymic nude mice, eyes; intravenous, 3 µCi, 24 h, U-87 MG glioma xenograft): 0.63 ± 0.1 %ID/g
CN(C)C12C3CCC4C3C3C(CCC31)C42  EC50 (Influenza A virus; viral replication; MDCK, H3N2 A/HK/7/87): > 100 µM
Cc1ccccc1N1C(=O)/C(=C/c2ccc(OCc3cccc(C(=O)O)c3)cc2)C(=O)NC1=S  concentration for maximal effect (LYP (PTPN22), human; immunoblot; Jurkat TAg; 0 or 3 min, added: TCR stimulation): ~4 µM
CN[C@](C)(C[18F])C(=O)O  tracer uptake (MDA-MB-468 tumour model; host not given, liver; 2 h, tumour-bearing): 1.8 %ID/g
Nc1nc2c([C@@H]3O[C@@H]4COP(=O)(O)O[C@H]5[C@@H](O)[C@H](c6scc7c(=O)[nH]c(N)nc67)O[C@@H]5COP(=O)(O)O[C@H]4[C@H]3O)scc2c(=O)[nH]1  cyclization rate constant k2 (dncV (Vibrio cholerae, UniProt Q9KVG7); substrate, HPLC; 500 µM, 37 °C): 0.000232 ± 5e-06 s⁻¹
CCC1(CC)C2CC3CC(C2)CC1(N)C3  EC50 (Influenza A virus; viral replication; MDCK, A/FM/1/47 (H1N1)): 7 µM
CC[C@H](C)[C@H](NC(=O)[C@@H](NC(=O)[C@H](CC(=O)O)NC(C)=O)[C@@H](C)O)C(=O)N[C@@H](CCCNC(=N)N)C(=O)N[C@@H](CC(C)C)C(=O)N[C@@H](CC(C)C)C(=O)N[C@@H](Cc1ccccc1)C(=O)N[C@@H](CCC(N)=O)C(=O)N[C@@H](CC(C)C)C(=O)N[C@@H](CCSC)C(=O)N[C@@H](CCCNC(=N)N)C(=O)N1CCC[C@H]1C(=O)N1CCC[C@H]1C(=O)N[C@@H](CC(N)=O)C(=O)N[C@@H](CCSC)C(=O)N[C@H](C(=O)N1CCC[C@H]1C(=O)N[C@@H](C)C(=O)N[C@H](C(=O)N[C@@H](CC(N)=O)C(=O)N[C@@H](C)C(N)=O)C(C)C)[C@@H](C)O  enrichment of specific T cells (measured: CCR9; PBMC CD4 T cells, DRB1*0101 healthy adults; dose not given, unit not given; baseline: CCR9+ over total non-specific T cells): ~10

Excerpt of the above:
Cc1ccccc1N1C(=O)/C(=C/c2ccc(OCc3cccc(C(=O)O)c3)cc2)C(=O)NC1=S  concentration for maximal effect (LYP (PTPN22), human; immunoblot; Jurkat TAg; 0 or 3 min, added: TCR stimulation): ~4 µM
C[C@H](NC(=O)[C@@H]1CCCN1C(=O)[C@H](Cc1ccc(O)cc1)NC(=O)CNC(=O)[C@H](CO)NC(=O)[C@H](Cc1ccccc1)NC(=O)[C@@H](N)[C@@H](C)O)C(=O)N[C@@H](Cc1ccccc1)C(=O)O  reversal potential (mu opioid receptor, rat; ion current, agonist, whole-cell patch clamp; Sprague Dawley rat, supraoptic nucleus neurons, brain slice; dose not given): -105 mV
